Measurements of several laboratories.
A part holds a random share of what one study measured.

Series 1
Target: Sal-like protein 4, full length isoform B (SALL4, Homo sapiens, UniProt Q9UJQ4-2, residues 1-616)
Technique: universal PBM
Molecule type: double-stranded DNA, one strand shown
Matrix: in vitro
Concentration: not given
Notes: 8-mer, flanks averaged, mean of replicates
Direction: higher = stronger binding
Construct (chain): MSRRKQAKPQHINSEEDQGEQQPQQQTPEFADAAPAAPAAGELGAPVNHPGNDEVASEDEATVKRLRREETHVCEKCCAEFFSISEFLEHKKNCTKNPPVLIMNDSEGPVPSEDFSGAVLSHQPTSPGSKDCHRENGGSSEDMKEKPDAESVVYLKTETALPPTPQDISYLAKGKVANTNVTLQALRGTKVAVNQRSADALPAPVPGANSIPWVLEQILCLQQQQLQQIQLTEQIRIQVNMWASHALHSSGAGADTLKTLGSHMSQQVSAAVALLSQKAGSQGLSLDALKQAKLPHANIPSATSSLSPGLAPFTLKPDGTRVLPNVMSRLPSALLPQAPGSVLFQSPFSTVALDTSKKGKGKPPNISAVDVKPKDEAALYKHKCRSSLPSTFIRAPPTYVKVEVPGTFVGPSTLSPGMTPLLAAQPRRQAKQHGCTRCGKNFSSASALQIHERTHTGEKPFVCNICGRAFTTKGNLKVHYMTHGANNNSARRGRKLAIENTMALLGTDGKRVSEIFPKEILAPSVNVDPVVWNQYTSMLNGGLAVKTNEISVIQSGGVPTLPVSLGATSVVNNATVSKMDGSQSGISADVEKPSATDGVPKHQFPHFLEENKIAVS
Strand	E-score
GGATAGAC	0.015
TCATGGCA	-0.0269
CTGACTAA	0.0826
GATAAGGC	0.082
AACTTCGA	0.017
TAGTACGA	0.178
ACATTGAA	0.265
AGGCGGAC	-0.287
CGTCGGAC	-0.229
GGGCAACC	-0.311
GAGCCGGA	-0.143
AAAACTGT	0.214
CCGAGCCC	-0.364
GCCACGCC	-0.232
AAAGCCGT	0.0433
ATGGTGCA	0.119
TCCTCTAA	0.0357

Series 2
Target: Fragile X messenger ribonucleoprotein 1, C-terminal low-complexity region (Fmr1, Mus musculus, UniProt P35922)
Technique: RNA Bind-n-Seq
Molecule type: RNA
Matrix: in vitro
Concentration: 200 nM
Notes: whole 134-nt RNA, ends assumed
Added: 150 mM KCl
Relative to: input library
Direction: higher = stronger binding
Strand	log2 enrichment
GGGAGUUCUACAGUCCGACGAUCGUCCUGUGCUACACAUCGUAUGUACCGAAUCGGGUUUUUGGGUUUGGGAAAAAAAGGGAAAGUAUUAUGUUACGCCGUUCGGAUCUGCACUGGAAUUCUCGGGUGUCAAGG	-0.45
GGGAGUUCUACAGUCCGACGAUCUCAAGUCCUGUGCUACACAUCGUAUGUACCGAAUCGGUUUUUGGUUUGGAAAGGAAAGUAUUAUGUUACGCCGUUCGGAUCUGCACUUCCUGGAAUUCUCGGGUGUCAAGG	-0.673
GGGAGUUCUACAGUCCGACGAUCCUGUGCUACACAUCGUAUGUACCGAAUCGGGGUUUUUUGGGGUUUUUUGGGUUUUUUGGGGAAAGUAUUAUGUUACGCCGUUCGGAUCUGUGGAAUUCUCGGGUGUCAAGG	-0.218
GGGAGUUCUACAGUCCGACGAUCCAAGUCCUGUGCUACACAUCGUAUGUACCGAAUCGGAAAAAGGAGGAAAAAAAGGAAAGUAUUAUGUUACGCCGUUCGGAUCUGCACUUCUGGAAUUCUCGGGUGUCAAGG	-0.631
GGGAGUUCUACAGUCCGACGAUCGUCCUGUGCUACACAUCGUAUGUACCGAAUCGGGUUUUUUUGGGUUUUUUUGGGUGGGAAAGUAUUAUGUUACGCCGUUCGGAUCUGCACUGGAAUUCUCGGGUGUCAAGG	0.352
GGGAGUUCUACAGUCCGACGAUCUCAAGUCCUGUGCUACACAUCGUAUGUACCGAAUCGGAAAAGGAAAAGGAAAAGGAAAGUAUUAUGUUACGCCGUUCGGAUCUGCACUUCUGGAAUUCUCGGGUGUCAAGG	-0.757
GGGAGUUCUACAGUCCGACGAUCAAGUCCUGUGCUACACAUCGUAUGUACCGAAUCGGUUUUUUUGGUUUUUUUGGAGGAAAGUAUUAUGUUACGCCGUUCGGAUCUGCACUUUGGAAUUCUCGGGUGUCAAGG	-0.802
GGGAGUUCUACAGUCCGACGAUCACCAUGCAGGUGGGCAUCUUUGGGAAGAGGGGCAAGGGGGGGAUAGGGAGGGGGGUAACACUUUGGGAACAGGUGGUCCCAGGUCGUUUCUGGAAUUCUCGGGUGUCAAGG	0.994
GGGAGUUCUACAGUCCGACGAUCUGGCCCUGGUGGCAUGCGGGGAGGAAGAUGUGGCCUCAUGGAUCGUGGUGGUCCCGGUGGAAUGUUCAGAGGUGGCCGUGGUGGAGACAGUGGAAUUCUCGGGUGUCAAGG	0.0744

Series 3
Target: Interferon regulatory factor 7, full length, phosphomimetic (IRF7, Homo sapiens, UniProt Q92985, residues 1-503, S101K/S471D/S472D/S475D/S476D/S477D/S483D/S484D/S487D)
Technique: protein-binding microarray
Molecule type: double-stranded DNA, one strand shown
Matrix: in vitro
Concentration: 250 nM
Notes: 60-bp whole probe
Added: salmon DNA 0.4 mg/ml
Relative to: random background probes
Direction: higher = stronger binding
All sequences stand within: GCCTAGCAC … GTCTTGATTCGCTTGACGCTGCTG
Construct (chain): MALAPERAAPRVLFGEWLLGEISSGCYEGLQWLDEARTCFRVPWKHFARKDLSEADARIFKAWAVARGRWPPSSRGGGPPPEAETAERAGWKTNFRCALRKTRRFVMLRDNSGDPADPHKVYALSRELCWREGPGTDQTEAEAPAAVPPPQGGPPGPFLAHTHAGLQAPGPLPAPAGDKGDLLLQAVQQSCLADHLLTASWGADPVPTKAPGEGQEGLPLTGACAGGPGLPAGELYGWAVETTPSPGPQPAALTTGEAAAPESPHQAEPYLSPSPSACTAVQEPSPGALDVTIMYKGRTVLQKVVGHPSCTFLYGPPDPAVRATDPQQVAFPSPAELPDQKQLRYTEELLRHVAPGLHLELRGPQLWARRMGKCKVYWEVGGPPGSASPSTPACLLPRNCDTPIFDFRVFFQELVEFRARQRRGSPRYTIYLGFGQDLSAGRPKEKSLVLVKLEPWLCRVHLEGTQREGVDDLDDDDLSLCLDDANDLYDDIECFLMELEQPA
Strand	log fluorescence
TTAGATATCATTATCGATTAGTGCTAG	0.317 z-score
GACGGTCTCCTTCTCTTGACGTGCTAG	0.0881 z-score
TTAGATCTCAGACTGGCTTAGTGCTAG	-0.0584 z-score
AGTCTCTGCAGGGAGAGAGCGTGCTAG	-0.474 z-score
TTAGGACTGCTATTGCTTTAGTGCTAG	-0.137 z-score
GACGATTACAGACTGGAGACGTGCTAG	-0.249 z-score
GAAGATTTCGGGTTTCGAGACGTGCTA	4.85 z-score
GACGGTATCGGACAGGGGACGTGCTAG	-0.244 z-score
GACGGTTTCCTTCGCCTGACGTGCTAG	0.824 z-score
CTAGGTTTCGACTTTCGGTTAGTGCTA	11.2 z-score
GACGACTTCAGTTTCGAGACGTGCTAG	4.03 z-score
CTAGGTTTCCTTATCCTTTAGTGCTAG	3.22 z-score
GACGGTTTCCTCTCCCTGACGTGCTAG	1.37 z-score
GACGGTATGGGTCTCGGGACGTGCTAG	-0.578 z-score
TCATCAACCAGTTTTCTTACTGTGCTA	-0.0346 z-score
GACGGACTGGATATCGGGACGTGCTAG	-0.523 z-score
AACGGTCTCGGTCTCGGGACGTGCTAG	1.13 z-score
GACGATTTCAGTATCGATACGTGCTAG	1.07 z-score
TTAGGCTTCCTTCTCCTTTAGTGCTAG	0.0449 z-score

Series 4
Target: RNA binding protein fox-1 homolog 2, RRM domain, GST-SBP tag (RBFOX2, Homo sapiens, UniProt O43251-10, residues 100-194)
Technique: RNA Bind-n-Seq
Molecule type: RNA
Matrix: in vitro
Concentration: 365 nM
Notes: natural RNA segment, single round, ends assumed
Relative to: no-protein control
Direction: higher = stronger binding
Target sequence (chain): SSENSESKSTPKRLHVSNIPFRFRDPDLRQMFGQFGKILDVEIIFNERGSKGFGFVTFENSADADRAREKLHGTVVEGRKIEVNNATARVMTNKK
Strand	RBNS enrichment (R)
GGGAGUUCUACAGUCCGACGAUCUUUCUACCACCAUAUUUUAAAGAUAUUUUUAUGACCGUGUAUACUCACACUUUGCUUGUAUUUUAAAAGGAGGAUAUAUUUGCACUUAUGUAUACUUUUACAGUUUGCCAUGGAAUUCUCGGGUGCCAA	5.69
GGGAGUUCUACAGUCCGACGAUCCCUUAAUAUUGCAUCUCACUCCCACCCUUAAAACCACAGAUUGCAAAGCAUAGCAUUUUAGCAUCAACUACAAUCAAAAGAGCGAUUUGCUGAAGGAAAAAUCGGACUGCUGGAAUUCUCGGGUGCCAA	0.774
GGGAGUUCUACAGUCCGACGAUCUGGCCCAUCUGCUGCCCACCAAGUCCCUUUCCAGCCACUGUGUGCUGGGGGCUUUCGGGGGCAGUUGCCCACCUCCUCAGGGCAGCUCUUUCUGGCCUUUUGGGGGGCAGUGGAAUUCUCGGGUGCCAA	0.412
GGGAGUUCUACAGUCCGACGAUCAUGCUGUCUCUGGCUGGGCCUUGGGGACACUUGCCACAUGGGUCCCAAAUGGCUGGGCAAGGGUGACCUUGAUUCACACACCACAGCCUCCCCUUGAGUGAUGGAAGGUGUGGAAUUCUCGGGUGCCAA	0.334
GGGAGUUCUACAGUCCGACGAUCUGCUGGGGACGGUAGUUGCUUUUCUCUCUCCUGAUGCUAGGUUGGGGCCCACCCUGCUCCCUGUUCCUGCUAGGGCCUGCCAGUGCCCCUGAGCUUGCUUUCCACAUUCUUGGAAUUCUCGGGUGCCAA	0.809
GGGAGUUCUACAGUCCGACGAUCUUUUCUCAUCUUAAUCUCUCCAUAAUUUCCCAUUUAAAGGUUUACAAAUAUGAGUGUGUGGAUGCUUUAAUUCAUUUAACCUCACUCCUCAAAGGUAACAUGCAACUUAGUGGAAUUCUCGGGUGCCAA	0.511
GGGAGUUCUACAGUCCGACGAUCGUUUGAUUCCUAGCAGCACAUAGAGGCUAAACCACCUGUAACUCUAGUCUCAGGGGCUCCAACAUCCGCCCUUGACCUUGGCUGGCACUGUAUGCAUGUAGUGCACAAACUGGAAUUCUCGGGUGCCAA	22.5
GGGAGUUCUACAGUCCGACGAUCAAAAACAAGCUUUUGAAAGACUGGAAGUUAAGAAAGAAACUUUACUGGCAAUGUUUAAGGACAACAAGUUCAAAUGCCGGAUAUUGAAUGAAAAGGUGAAUACUCCAACUUGGAAUUCUCGGGUGCCAA	0.577

A few entries again (series 3):
Strand	log fluorescence
GACGACTTCAGTTTCGAGACGTGCTAG	4.03 z-score
CTAGGTTTCCTTATCCTTTAGTGCTAG	3.22 z-score
GACGGTTTCCTCTCCCTGACGTGCTAG	1.37 z-score
GACGGTATGGGTCTCGGGACGTGCTAG	-0.578 z-score
TCATCAACCAGTTTTCTTACTGTGCTA	-0.0346 z-score
GACGGACTGGATATCGGGACGTGCTAG	-0.523 z-score
AACGGTCTCGGTCTCGGGACGTGCTAG	1.13 z-score
